Results of several laboratories.
Parts stem from different laboratories: compare values within a part only.

Set 1
Target: Interferon regulatory factor 3, full length, phosphomimetic (IRF3, Homo sapiens, UniProt Q14653, residues 1-427, S386D/S396D/S398D/S402D/T404D/S405D)
Method: protein-binding microarray
Form: double-stranded DNA, one strand shown
Matrix: in vitro
Tested at: 2540 nM top
Notes: 60-bp whole probe
With: salmon DNA 0.4 mg/ml
Reference: random background probes
Direction: higher = stronger binding
Endpoint: fitted relative affinity
Shared flanks, not repeated: GCCTAGCAC … GTCTTGATTCGCTTGACGCTGCTG
Residues (chain): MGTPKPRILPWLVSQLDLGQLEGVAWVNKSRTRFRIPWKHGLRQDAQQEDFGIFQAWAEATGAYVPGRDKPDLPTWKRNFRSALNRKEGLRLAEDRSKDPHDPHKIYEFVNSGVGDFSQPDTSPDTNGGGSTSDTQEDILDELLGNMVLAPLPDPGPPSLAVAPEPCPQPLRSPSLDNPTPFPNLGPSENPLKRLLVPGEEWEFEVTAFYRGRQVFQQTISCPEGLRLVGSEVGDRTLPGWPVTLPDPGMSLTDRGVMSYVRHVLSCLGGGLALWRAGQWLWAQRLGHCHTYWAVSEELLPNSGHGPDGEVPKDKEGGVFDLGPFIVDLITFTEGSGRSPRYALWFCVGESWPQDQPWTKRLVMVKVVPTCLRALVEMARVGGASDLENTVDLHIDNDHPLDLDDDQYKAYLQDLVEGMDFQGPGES
TTAGGTCTCCTACGGCTTTAGTGCTAG: -0.311 z-score
TCACTCCTATCTTATGATACTGTGCTA: 0.977 z-score
GACGGTATCGGTCTCTGGACGTGCTAG: 4.34 z-score
TCAAGTCTCAAAATTAGACTGTGCTAG: 0.08 z-score
TCAGATAACTTTTTTTTACTGTGCTAG: 0.369 z-score
TCAAACTTCCCAATGGTACTGTGCTAG: 0.339 z-score
AGCAAATTATATCTTATATCGTGCTAG: -0.145 z-score
TTAGATTTCGGGACTTGATTAGTGCTA: 1.09 z-score
GGCGATTTCGGGACTGGAGACGTGCTA: 1.54 z-score

Set 2
Target: Prothrombin, mature alpha-thrombin (F2, Homo sapiens, UniProt P00734)
Method: aptamer microarray, sandwich
Form: DNA with 2'F-ANA
Matrix: in vitro
Tested at: 200 nM
Notes: whole 15-mer aptamer, many near background
With: Cy3 exosite-II aptamer, 400 nM
Direction: higher = stronger binding
Endpoint: mean fluorescence intensity
Sequence: GGTTGGTGTGGTTGG
2'F-ANA at 4 7 9 10 11 12 14: 65.7 a.u.
2'F-ANA at 1 2 5 7 8 9 10 13 15: 45.9 a.u.
2'F-ANA at 3 5 10 11 13 14 15: 51.1 a.u.
2'F-ANA at 2 3 4 5 6 7 10 11 12 13 14: 61.8 a.u.
2'F-ANA at 1 10 13 14 15: 63.6 a.u.
2'F-ANA at 7 8 9: 627 a.u.
2'F-ANA at 1 5 7 8 9 10 12 13: 43.1 a.u.
2'F-ANA at 2 4 5 6 8 11 12 13 15: 72.4 a.u.

Set 3
Target: Ras GTPase-activating protein-binding protein 1, full length (G3BP1, Homo sapiens, UniProt Q13283)
Sequence of UniProt Q13283 (whole entry, looked up): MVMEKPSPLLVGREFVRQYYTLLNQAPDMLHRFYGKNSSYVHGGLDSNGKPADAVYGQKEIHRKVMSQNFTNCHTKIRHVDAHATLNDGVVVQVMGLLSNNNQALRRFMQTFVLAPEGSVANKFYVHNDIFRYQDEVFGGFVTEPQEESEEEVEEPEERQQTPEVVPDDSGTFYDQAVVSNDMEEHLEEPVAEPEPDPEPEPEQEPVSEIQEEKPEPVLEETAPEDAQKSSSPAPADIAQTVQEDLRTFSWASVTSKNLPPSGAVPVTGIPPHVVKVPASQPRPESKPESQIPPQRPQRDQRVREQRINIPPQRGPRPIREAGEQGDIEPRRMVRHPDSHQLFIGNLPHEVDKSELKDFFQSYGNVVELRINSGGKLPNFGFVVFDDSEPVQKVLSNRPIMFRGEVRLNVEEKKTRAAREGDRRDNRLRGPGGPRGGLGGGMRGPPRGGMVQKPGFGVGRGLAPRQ
Method: RNA Bind-n-Seq
Form: RNA
Matrix: in vitro
Tested at: 200 nM
Notes: whole 134-nt RNA, ends assumed
With: 150 mM LiCl
Reference: input library
Direction: higher = stronger binding
Endpoint: log2 enrichment
Library: 7-deaza-guanosine replaces G
Shared flanks, not repeated: GGGAGUUCUACAGUCCGACGAUC … UGGAAUUCUCGGGUGUCAAGG
UAACUUUAGAGGAGGAUCUGAUGGUUAUGGCAGUGGACGUGGAUUUGGGGAUGGCUAUAAUGGGUAUGGAGGAGGACCUGGAGGUGGCAA: -0.0958
ACCAUGCAGGUGGGCAUCUUUGGGAAGUGGGGCAAGGGGGGGAUAGGGAGGGGGGUAACACUUUGGGAACAGGUGGUCCCAGGAAAUUUC: 0.272
UCAAGUCCUGUGCUACACAUCGUAUGUACCGAAUCGGUUUUUGGAAAGGAAAGGAAAGUAUUAUGUUACGCCGUUCGGAUCUGCACUUCC: -0.219
AUUUGUACACAGACAGGGAAACUGGCAAGCUGAAGGGAGAGGCAACGGUCUCUUUUGAUGACCCACCUUCAGCUAAAGCAGCUAUUGACU: -0.209
AGUCCUGUGCUACACAUCGUAUGUACCGAAUCGGGGAAAAAGGAAAAAGGAAAAAGGGAAAGUAUUAUGUUACGCCGUUCGGAUCUGCAC: -0.589
CUGUGCUACACAUCGUAUGUACCGAAUCGGGGCCCCCCGGGGCCCCCCGGGCCCCCCGGGGAAAGUAUUAUGUUACGCCGUUCGGAUCUG: -1.77
CACAGACAACACGCACCCACACAGAGACAGAGGGAAGGGGUUGGGAUGGGGACAGGGUGCACAGCAGGGCGGGGUAGGACCCCAGCCCCU: 0.823

Single results of other studies
PhoQ, residues 284 288 289 292 302 303 AGCYAI
fold induction (PhoP, residues 12 14 15 18 19 GQAIL (Escherichia coli, UniProt P23836); Sort-seq, refers to: YFP reporter; E. coli; PhoQ-PhoP variant library, with: 10 µM Mg2+; reference: high Mg2+ state, higher = stronger signaling): 1.88

A few entries again (set 1):
TCAAGTCTCAAAATTAGACTGTGCTAG: 0.08 z-score
TCAGATAACTTTTTTTTACTGTGCTAG: 0.369 z-score
TCAAACTTCCCAATGGTACTGTGCTAG: 0.339 z-score
